Measured values collected from several papers.
Numbered parts are unrelated; each lists some results of a single study.

Series 1
Target: Prothrombin, mature alpha-thrombin (F2, Homo sapiens, UniProt P00734)
Technique: aptamer microarray, sandwich
Form: DNA with 2'F-ANA
Matrix: in vitro
Tested at: 200 nM
Setting: whole 15-mer aptamer, many near background
Together with: Cy3 exosite-II aptamer, 400 nM
Reading: higher = stronger binding
Measurement: mean fluorescence intensity
Oligonucleotide: GGTTGGTGTGGTTGG
2'F-ANA at 1 2 4 5 7 12 13 14: 54.7 a.u.
2'F-ANA at 1 5 6 7 10 13 14 15: 44.9 a.u.
2'F-ANA at 3 4 5 8 12 13 14 15: 55.7 a.u.
2'F-ANA at 1 2 3 6 9 10 11 14: 59.2 a.u.
2'F-ANA at 1 2 9 13 14: 81.6 a.u.
2'F-ANA at 8 9 10 12 14: 105 a.u.
2'F-ANA at 1 3 4 7 8 11 12 15: 405 a.u.
2'F-ANA at 1 5 10 11 14: 54.3 a.u.
2'F-ANA at 1 5 8 13 14 15: 44.1 a.u.
2'F-ANA at 4 7 10 11 14 15: 63.8 a.u.
2'F-ANA at 2 12 13 14 15: 185 a.u.
2'F-ANA at 6 7 9 11 12 13: 520 a.u.
2'F-ANA at 2 3 4 9 11 12 13: 593 a.u.
2'F-ANA at 3 5 6 7 8 9 11 13 15: 82.4 a.u.
2'F-ANA at 2 3 6 7 8 9 10 11 14 15: 215 a.u.
2'F-ANA at 2 3 5 6 9 12 15: 179 a.u.
2'F-ANA at 1 9 10 11 12: 62.1 a.u.
2'F-ANA at 1 5 6 7 8 11 13 14: 45.5 a.u.
2'F-ANA at 1 2 7 8 10 13 14: 89 a.u.
2'F-ANA at 2 5 6 9 11 12 14 15: 43.7 a.u.
2'F-ANA at 1 6 8 9 11 12 14 15: 69.9 a.u.
2'F-ANA at 2 3 4 5 13 15: 63.4 a.u.

Series 2
Target: RING finger protein unkempt homolog, zinc fingers 1-6, GST-SBP tag (UNK, Homo sapiens, UniProt Q9C0B0, residues 30-357)
Chain of UniProt Q9C0B0 (30-357, looked up): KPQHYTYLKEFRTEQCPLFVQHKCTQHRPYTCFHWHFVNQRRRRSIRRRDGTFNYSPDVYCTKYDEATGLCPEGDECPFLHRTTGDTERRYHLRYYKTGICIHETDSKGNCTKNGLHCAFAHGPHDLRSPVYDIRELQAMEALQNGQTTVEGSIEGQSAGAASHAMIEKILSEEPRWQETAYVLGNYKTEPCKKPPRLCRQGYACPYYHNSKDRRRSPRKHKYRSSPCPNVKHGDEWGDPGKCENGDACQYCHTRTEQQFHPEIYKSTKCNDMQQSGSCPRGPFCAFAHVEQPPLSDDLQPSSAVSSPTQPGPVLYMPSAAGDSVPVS
Technique: RNA Bind-n-Seq
Form: RNA
Matrix: in vitro
Tested at: not given
Setting: RNA with constant flanks, ends assumed
Reference: input RNA pool
Reading: higher = stronger binding
Measurement: bound/input enrichment
Constant ends, left off below: GGGAGUUCUACAGUCCGACGAUC … CAACAGAGGAUUGAGCAUCA
UCAUAUCAAACAUUAAAUUUAAAAGUGACCACUCUUAAUUAAAAUUAACUUUUAAAUGUUUACCGGAGUACGUGCUGUGAAGUGAUCUGAAAUUUGUAAUAUUUUUGUCAUGAACCGUAC: 0.286 ratio
UUGAUCGAGUAAUGAUUAUCUAAGUAACUGUUGGGGACUGUGGAUAAAUUAGCAGGAGGGCCGUUUAUGAGAGCUGGCUUCAGGACGCUCUGUCCUCUGGAAGGAGUUUGUCUUCUGUGU: 0.816 ratio
GUUUUUGACAAUUUUUUUAUCAAGAAAGAGCAAAUAAAAAGCAGUGGUAAUGAUCCAAAGUACCGUACAACCACAGCUCAGAAUUCCAGCAGUUCAUCCAGUCAGAGCAAAAUGGUUAAU: 0.279 ratio
GACAGAAAGUACCACCUAAAGACAUACAGACAAUGCUGUGUUGGGACUGAGCUGGCCGACUGGAUGAUACAGCAGACAUCCUGUGUUCACUCGCGGACUCAAGCUGUUGGCAUGUGGCAA: 0.107 ratio
AUUCAGAAUCAUUUUGUGGACGAAUAUGAUCCAACAAUAGAGGAUUCCUACAGGAAGCAAGCCGUAAUUGAUGGAGAAACCUGUCUCUUGGAUAUUCUCGACACAGCAGGUCAAGAGGAG: 0.265 ratio
GAAGUCAGAAAGAAAUGUGCUGAGGAGGCCCAACUGAUCUCUUCUCUGAAAGCUGAAUUAACCCGUCAGGAAUCGCAGAUCUCCACUUACGAAGAAGAAUUGGCAAAAGCUAGAGAAGAG: 0.227 ratio
UUUAGUGACUAUGGUAAGCUUUUGUUGAUUUGUUUCAGACUUUUUUCUCCUGUAAAAAAACCGUACUGAUUAACUUUUUUAAAAGAAAGAUUUUACUGUAAAUAUGGAUUUUUUUUUUUG: 1.81 ratio
CCAGUUGUAUACAAAUACCUAACAGAGAAAGCAGUAAAAUGGUCACAGCAGGUUGAACGUCACCGAGAACAUCUCAUUAACUACAUUAUAUUUUUGAGAAUAACACCAUUUCUGCCUAAU: 1.57 ratio
UCUACUUCCUCCUCCUCCUCUGAAGACGACUGUUUUGAGAGGAGAACAAAAAGGAACCGAAACCGAGCUAUUAACAGGUGCCUCCCACUAAAUUUUCGGAAAGAUGAAAUAAGAGGGAUU: 0.216 ratio
UAUCAUGCCUUUUCUCUAGUUUCUCUUUCAGGAUGGAAAGAAUAUUUUAAAAACAACAUUUCCGGACUUAAACAUUUGAUUUCGGUACCAGAUGAAUUGCUAACCUGUUACUGAUAAUUU: 0.866 ratio
UCACCACAGAGCAUUUUAGAUGAUGUUGCCAUGGUACUAGAUGAAGAAGCAGAAGUUUUUACCGUCAAAAUGUGGAGAUUAUUGAUAUAUGAAACAGAAGCCAAGAAAAUUGGCCUUGUG: 0.551 ratio

Series 3
Target: Histone acetyltransferase KAT6A, winged helix 2, GST fusion (KAT6A, Homo sapiens, UniProt Q92794, residues 85-181)
Technique: protein binding microarray
Form: double-stranded DNA, one strand shown
Matrix: in vitro
Tested at: not given
Setting: 8-mer, flanks averaged, mean of 2 arrays, mostly near background
Reference: not given
Reading: higher = stronger binding
Measurement: E-score
Target sequence (chain): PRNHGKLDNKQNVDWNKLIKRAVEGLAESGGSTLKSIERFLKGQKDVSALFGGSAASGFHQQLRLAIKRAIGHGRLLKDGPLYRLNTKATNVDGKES
CATCCTGA: 0.0884
CTTCGAAC: 0.173
AAAATAGG: 0.00607
AGCAAGGG: 0.0682
GATTTCCC: 0.0333
AGACGCTG: -0.169
AGTACACT: -0.0938
CGTTGAGA: -0.0856
ATTTCCCG: 0.139
GGCTGTGA: -0.0253
GTAGAGAA: -0.0762
GTTATATA: -0.0638
GACCTCGA: 0.0945
CCGTTGCG: 0.205
GCCAATCA: -0.0934
CTGTCATA: -0.0963
AGCTTCCA: 0.127
ATCATCCC: -0.00915
ATCGACGC: -0.00685
AGTCTCGA: -0.0724
AATGGCGG: 0.0513
AGTGGTAG: -0.163
CGTTTACA: 0.0474
CCAAACAG: 0.0443
AACGGTAG: -0.106

Series 4
Target: RNA binding protein fox-1 homolog 2, RRM domain, GST-SBP tag (RBFOX2, Homo sapiens, UniProt O43251-10, residues 100-194)
Technique: RNA Bind-n-Seq
Form: RNA
Matrix: in vitro
Tested at: 365 nM
Setting: natural RNA segment, single round, ends assumed
Reference: no-protein control
Reading: higher = stronger binding
Measurement: RBNS enrichment (R)
Constant ends, left off below: GGGAGUUCUACAGUCCGACGAUC … UGGAAUUCUCGGGUGCCAA
Residues (chain): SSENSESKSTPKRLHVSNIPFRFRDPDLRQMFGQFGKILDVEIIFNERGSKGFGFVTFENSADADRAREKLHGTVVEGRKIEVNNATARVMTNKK
GACAUGGUGGUGGGGGAAGGACGGGUGGGCAAGGCUGGUGCGUUCCCCAGCUCUCCCUACGCUGCUCGGGCCAUUGCCCAGCCAGAUGUGGUCACCUCAGUCCAGCUCUG: 0.413
ACACUUUAAUGAAGGAAACAACACAUUUAUACGGAUUUCAUAUUUCUACCCGCCUUUCCUGACUCUGUGUUUUAUAUAUAUUAUAUAUAAAUAUAUAUUGUGUACGGCCG: 1.06
GAGCACCUGAAGACUAAUGUUUUACACUGGAUUGAGAUCUCAUGGAAAAUGAAACAUUCUUUUUCUGGAGAAGUUUACAUGCCCAUUGUUGGUCACCUCUUUACUGUAAA: 0.453
GAUCAAAUCAAGACACAUUUCAUUUUACAUUUUAUUAUUGUACAGUUUUUGUUUCGGAUGAUGAUCACAGCAAUCUUUAUUCUAUACAUUUUAUGUGAACUUUUUUAAUG: 0.601
GUCCUGGGUUCCUUGAACAUGUUCCCAUGUAGGAGGUAAAACCAAUUCUGGAAGUGUCUAUGAACUUCCAUAAAUAACUUUAAUUUUAGUAUAAUGAUGGUCUUGGAUUG: 0.302
UGCUAUCAUCAUUAACAGCGUAAUUAUACAAGCAUAUUUAAUGCUGAGUUUAAUUUAAUAUGUAAUACAUAUGGUAAUUGUAGGGUAAUACCCACAACAACUGUAGUUUC: 0.341
AGCCACAGCUUAGGCCCUCAGCCUCACUCCCUGGCUUGCUCAGUGCCUACAGCCCUGUUACCUGAUACCUGUGCUUUAUCCCAGGGGUGGGCAGACCUCUUAACCUUAUA: 0.621
CAAGGCUCCCUUUCUGGGGAAGCCUCGUGUUGGAGAUAGAGGCAGCAGGCCUGCGUUGCCAGGGAGUACCCCAGCCCCUUUCCCUUCUUGGGCUGCUACCGCCGCCACCA: 0.303
GGUUGACCUUCCUCCAUCCCCUGGUCCUUCCCUUCCCUUCCCGAGGCACAGAGAGACAGGGCAGGAUCCACGUGCCCAUUGUGGAGGCAGAGAAAAGAGAAAGUGUUUUA: 0.632
GGAGCUGAGGGGACGGUCUUCGGCUCCUCUGCACCCCGUGAUUCUGCCCACGCUCCUCCACCACGAGGCACUGACCUGCGUCGGGUGGUGACCGUGGCUGGCGGUCACGC: 0.224
CAGUGUCUCAGAACUGAAUAACUGCAGUGACUUGAUGCUCUAAAACAGUGUAGGAUUUAAGAAUAGAUGGUUUUUAAUCCUGGAAAUUGUGAUUGUGACCCAUGAGUGGA: 0.518
UACUCAGGCAGUCGACCCGCCACGAUGAGAAGUGGGACCAGCAGAGGGCGCCAACUUCAGGAGUCCGCUUUCCCACCAGGCUUCAUUCACCCAGUGGACCUGAACUGUUU: 0.187

Repeated from above (series 1):
2'F-ANA at 1 2 3 6 9 10 11 14: 59.2 a.u.
2'F-ANA at 1 2 9 13 14: 81.6 a.u.
2'F-ANA at 8 9 10 12 14: 105 a.u.
2'F-ANA at 1 3 4 7 8 11 12 15: 405 a.u.
2'F-ANA at 1 5 10 11 14: 54.3 a.u.
